Assay results from different studies.
Lines come from different studies, so protocols differ. Numbers after ± are the reported error.
CNR2: Cannabinoid receptor 2 (CNR2, Homo sapiens, UniProt P34972)
Oprm1: Mu-type opioid receptor (Oprm1, Rattus norvegicus, UniProt P33535)
lasR: Transcriptional activator protein LasR (lasR, Pseudomonas aeruginosa, UniProt P25084)

The chains behind the UniProt entries cited, without tags or fusion partners. Residues count along the entry.
UniProt P34972, whole entry: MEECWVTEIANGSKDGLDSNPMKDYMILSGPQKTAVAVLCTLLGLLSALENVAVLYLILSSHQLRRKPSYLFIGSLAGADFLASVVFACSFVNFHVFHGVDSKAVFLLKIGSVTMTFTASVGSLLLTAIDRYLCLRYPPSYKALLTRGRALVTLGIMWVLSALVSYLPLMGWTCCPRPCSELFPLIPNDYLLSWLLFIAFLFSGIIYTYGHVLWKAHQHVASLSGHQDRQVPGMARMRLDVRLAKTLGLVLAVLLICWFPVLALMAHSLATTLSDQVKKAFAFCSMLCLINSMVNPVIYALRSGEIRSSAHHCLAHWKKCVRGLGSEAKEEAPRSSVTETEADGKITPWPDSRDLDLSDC
UniProt P33535, whole entry: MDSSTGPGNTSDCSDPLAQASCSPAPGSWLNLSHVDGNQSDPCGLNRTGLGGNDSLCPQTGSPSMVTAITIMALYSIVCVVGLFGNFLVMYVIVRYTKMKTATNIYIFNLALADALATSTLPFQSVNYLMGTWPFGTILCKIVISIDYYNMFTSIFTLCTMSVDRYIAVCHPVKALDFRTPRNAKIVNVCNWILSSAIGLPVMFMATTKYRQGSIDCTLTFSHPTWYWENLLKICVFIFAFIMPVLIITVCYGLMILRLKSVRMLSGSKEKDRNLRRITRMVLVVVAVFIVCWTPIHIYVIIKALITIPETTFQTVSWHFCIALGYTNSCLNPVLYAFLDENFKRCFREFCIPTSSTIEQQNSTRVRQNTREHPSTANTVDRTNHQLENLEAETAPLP
UniProt P25084, whole entry: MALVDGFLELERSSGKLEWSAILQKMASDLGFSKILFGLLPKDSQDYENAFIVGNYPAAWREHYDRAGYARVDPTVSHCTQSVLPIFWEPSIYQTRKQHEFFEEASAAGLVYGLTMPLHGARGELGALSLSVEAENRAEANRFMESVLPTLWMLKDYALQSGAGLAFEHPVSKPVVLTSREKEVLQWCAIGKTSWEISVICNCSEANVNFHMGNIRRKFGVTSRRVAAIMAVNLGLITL
UniProt P33534, whole entry: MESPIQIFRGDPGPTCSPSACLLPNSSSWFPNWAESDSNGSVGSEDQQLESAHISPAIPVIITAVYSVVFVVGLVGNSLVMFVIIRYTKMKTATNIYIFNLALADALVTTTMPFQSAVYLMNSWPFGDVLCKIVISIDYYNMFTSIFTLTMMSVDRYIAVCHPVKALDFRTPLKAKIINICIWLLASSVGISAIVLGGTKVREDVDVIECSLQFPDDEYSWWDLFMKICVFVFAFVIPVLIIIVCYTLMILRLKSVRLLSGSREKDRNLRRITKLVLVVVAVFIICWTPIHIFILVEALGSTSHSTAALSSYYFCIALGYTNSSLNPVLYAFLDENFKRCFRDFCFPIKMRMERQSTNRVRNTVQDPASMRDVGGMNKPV
UniProt P01106, whole entry: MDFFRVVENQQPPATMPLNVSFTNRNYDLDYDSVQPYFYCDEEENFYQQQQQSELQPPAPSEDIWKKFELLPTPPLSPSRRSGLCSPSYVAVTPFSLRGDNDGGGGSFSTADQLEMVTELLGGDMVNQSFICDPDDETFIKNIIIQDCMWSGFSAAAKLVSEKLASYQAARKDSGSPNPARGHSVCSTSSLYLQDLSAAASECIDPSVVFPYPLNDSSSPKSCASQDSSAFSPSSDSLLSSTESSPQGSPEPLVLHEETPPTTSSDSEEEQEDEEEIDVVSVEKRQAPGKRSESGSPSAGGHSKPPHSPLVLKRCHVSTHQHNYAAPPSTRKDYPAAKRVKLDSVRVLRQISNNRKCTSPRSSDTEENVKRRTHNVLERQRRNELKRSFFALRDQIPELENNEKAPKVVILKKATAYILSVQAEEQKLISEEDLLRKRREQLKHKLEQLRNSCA
UniProt P54753, 34-998 limits assumed: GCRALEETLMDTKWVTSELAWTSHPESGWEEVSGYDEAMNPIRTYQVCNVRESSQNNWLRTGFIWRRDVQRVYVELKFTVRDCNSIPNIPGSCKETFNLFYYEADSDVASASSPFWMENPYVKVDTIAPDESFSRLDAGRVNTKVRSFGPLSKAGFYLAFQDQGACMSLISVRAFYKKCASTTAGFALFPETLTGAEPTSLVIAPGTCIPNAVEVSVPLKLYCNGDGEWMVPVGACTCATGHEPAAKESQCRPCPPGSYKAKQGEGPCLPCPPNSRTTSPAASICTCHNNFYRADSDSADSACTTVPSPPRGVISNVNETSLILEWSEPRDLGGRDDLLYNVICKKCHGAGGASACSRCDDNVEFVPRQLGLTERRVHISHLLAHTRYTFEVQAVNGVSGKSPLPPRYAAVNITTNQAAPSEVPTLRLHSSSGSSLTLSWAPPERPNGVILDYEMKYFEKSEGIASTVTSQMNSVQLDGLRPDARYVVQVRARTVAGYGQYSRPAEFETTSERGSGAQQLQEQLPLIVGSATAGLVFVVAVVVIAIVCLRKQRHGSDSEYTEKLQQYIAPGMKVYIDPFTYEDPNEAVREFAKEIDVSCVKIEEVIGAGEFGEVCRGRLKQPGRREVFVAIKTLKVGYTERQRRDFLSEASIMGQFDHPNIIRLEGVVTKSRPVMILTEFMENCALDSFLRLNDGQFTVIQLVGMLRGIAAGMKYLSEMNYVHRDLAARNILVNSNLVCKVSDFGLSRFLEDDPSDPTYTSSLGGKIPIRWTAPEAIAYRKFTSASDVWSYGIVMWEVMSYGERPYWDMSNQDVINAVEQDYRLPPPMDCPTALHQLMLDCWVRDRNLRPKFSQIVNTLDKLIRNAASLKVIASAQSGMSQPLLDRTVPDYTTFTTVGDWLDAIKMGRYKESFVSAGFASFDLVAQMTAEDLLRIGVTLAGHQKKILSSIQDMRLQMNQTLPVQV
UniProt P41145, whole entry: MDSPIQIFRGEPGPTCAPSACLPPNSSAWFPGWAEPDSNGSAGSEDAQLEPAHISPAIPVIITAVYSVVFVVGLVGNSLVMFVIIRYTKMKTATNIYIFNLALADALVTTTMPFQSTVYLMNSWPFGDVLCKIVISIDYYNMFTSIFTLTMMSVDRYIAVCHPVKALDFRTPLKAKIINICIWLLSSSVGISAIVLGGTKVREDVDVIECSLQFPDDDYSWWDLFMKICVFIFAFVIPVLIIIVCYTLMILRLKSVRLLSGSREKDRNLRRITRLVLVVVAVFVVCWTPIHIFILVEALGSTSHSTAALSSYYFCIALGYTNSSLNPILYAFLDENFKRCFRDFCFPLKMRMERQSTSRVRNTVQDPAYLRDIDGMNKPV
UniProt Q14833, 33-912 limits assumed: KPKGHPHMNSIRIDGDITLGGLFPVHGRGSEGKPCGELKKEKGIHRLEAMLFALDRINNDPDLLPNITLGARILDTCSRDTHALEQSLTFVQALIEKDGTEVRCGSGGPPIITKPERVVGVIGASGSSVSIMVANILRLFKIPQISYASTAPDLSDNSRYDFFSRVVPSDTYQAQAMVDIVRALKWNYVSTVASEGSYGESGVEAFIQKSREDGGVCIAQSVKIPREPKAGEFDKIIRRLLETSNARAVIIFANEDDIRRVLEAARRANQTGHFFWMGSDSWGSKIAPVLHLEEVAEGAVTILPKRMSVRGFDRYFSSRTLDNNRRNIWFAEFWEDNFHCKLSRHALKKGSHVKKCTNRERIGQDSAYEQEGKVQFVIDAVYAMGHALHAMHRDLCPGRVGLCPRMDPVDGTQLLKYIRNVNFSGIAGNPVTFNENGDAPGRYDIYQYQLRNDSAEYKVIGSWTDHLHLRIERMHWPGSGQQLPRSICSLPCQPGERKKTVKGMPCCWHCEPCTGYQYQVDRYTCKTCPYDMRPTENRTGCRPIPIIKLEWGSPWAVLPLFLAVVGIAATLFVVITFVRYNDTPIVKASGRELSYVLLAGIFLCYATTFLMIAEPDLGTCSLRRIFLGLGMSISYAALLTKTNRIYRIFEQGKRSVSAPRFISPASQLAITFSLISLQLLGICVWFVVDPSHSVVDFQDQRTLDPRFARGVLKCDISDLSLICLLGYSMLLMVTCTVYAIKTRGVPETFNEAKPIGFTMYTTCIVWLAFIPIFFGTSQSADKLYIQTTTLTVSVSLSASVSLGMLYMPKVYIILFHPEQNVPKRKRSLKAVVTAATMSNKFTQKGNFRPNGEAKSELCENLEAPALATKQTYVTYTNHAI
UniProt P35462, whole entry: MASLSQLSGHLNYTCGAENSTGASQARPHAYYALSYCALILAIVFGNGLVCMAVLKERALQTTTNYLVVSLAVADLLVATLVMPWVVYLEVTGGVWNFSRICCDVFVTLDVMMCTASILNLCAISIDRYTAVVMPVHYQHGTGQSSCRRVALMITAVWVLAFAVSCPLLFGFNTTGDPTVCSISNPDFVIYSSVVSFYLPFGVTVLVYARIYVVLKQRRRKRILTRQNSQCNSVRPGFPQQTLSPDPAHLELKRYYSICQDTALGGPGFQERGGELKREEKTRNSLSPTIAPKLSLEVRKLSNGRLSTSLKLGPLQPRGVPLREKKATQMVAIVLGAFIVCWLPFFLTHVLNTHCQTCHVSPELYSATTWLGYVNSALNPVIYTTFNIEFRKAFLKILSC
UniProt P35372, whole entry, looked up: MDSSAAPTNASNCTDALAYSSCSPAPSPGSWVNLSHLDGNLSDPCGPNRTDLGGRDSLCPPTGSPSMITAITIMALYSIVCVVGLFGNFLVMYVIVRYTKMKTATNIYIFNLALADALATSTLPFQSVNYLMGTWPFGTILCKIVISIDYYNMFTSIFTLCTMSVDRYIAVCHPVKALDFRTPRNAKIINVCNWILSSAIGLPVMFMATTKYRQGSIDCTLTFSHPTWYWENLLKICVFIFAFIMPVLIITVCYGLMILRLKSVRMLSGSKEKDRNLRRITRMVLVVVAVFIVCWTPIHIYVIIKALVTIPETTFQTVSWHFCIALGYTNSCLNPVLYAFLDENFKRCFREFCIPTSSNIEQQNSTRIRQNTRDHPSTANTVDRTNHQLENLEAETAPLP
UniProt Q3TBT3, whole entry: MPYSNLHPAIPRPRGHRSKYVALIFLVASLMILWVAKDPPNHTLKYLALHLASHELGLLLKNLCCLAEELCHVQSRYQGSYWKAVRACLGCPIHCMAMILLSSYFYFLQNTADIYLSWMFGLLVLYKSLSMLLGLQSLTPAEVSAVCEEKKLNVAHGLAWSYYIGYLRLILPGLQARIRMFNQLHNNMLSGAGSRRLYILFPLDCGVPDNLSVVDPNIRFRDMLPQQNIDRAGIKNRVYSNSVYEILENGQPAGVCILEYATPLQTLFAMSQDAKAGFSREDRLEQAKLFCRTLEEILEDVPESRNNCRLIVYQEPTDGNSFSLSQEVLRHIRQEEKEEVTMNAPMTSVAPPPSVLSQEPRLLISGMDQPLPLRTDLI

| Structure (SMILES) | target or system | test | system | conditions | quantity | value |
| --- | --- | --- | --- | --- | --- | --- |
| COc1ccc2c3c1O[C@H]1[C@H](NC(=O)c4cccc(I)c4)C=C[C@H]4[C@@H](C2)N(CC2CC2)CC[C@@]341 | Kappa-type opioid receptor (Oprk1, Mus musculus, UniProt P33534) | G protein activation, agonist | transfected cell membranes |  | EC50 | 1.9 ± 0.09 nM |
| CCCCCCCCCCCCNC(=O)N[C@H](C(=O)N[C@H]1/C=C/CCNC(=O)/C=C/[C@H](C)NC1=O)C(C)C | Proteasome Macropain subunit MB1 (PSMB5, Homo sapiens, UniProt P28074) | chymotrypsin-like activity, inhibitor, Proteasome-Glo | ARD | 24 h | Ki | 14.6 ± 2.68 nM |
| C[C@H](CS)C(=O)N[C@H](Cc1c[nH]c2ccccc12)C(=O)O | Klebsiella pneumoniae |  | VIM-1 producing | 25 µM, together with: meropenem | MIC of meropenem | 4 µg/mL |
| CC1(Cc2ccccc2)COc2ccc(C(=O)Nc3ccccc3I)cc21 (racemic) | CNR2 |  | CHO cell membranes |  | EC50 | > 10000 nM |
| C#CCCCN1C(=O)[C@@]2(CN2[S@@+]([O-])C(C)(C)C)c2ccccc21 (stereo partly drawn) | Myc proto-oncogene protein (MYC, Homo sapiens, UniProt P01106) | protein degradation, degrader, HiBiT | HEK293-LgBiT | 24 h | EC50 | 9300 nM |
| O=C(CCl)c1ccc2c(Nc3ccccc3)ncnc2c1 | Ephrin type-B receptor 3 (EPHB3, Homo sapiens, UniProt P54753) | EPHB3 autophosphorylation, inhibitor, immunoblot | HEK293, transfected | together with: ephrin-B2 | EC50 | 300 nM |
| COCOc1ccc(C(=O)OC2=C[C@@H](C(=O)OC)[C@]3(C)CC[C@H]4C(=O)O[C@H](c5ccoc5)C[C@]4(C)[C@H]3C2=O)cc1Br | Kappa-type opioid receptor (OPRK1, Homo sapiens, UniProt P41145) | agonist |  |  | EC50 | > 10000 nM |
| N#Cc1cc(C(=O)N[C@@H]2CC[C@@]3(O)[C@H]4Cc5ccc(O)c6c5[C@@]3(CCN4CC3CC3)[C@H]2O6)ccn1 | Oprm1 | agonist | CHO cell membranes |  | EC50 | 1.82 ± 0.28 nM |
| CC(CCN[C@H](CN[C@H](CO)CN1CCC[C@H]1CN[C@H](CN)c1ccccc1)c1ccccc1)c1ccccc1 (stereo partly drawn) | Escherichia coli | bacterial growth |  | 16 µM, fold shift of IC90, together with: amikacin | potentiation of amikacin | 3.1 fold |
| COc1ccc(S(=O)(=O)N2CCCN(CC(=O)Nc3ccccc3OC)CC2)cc1 | Metabotropic glutamate receptor 4 (GRM4, Homo sapiens, UniProt Q14833) | calcium mobilization, positive allosteric modulator | CHO cells with Gqi5 | together with: glutamate EC20 | EC50 | > 10000 nM |
| COCOc1c(Br)cc(Br)cc1CNC(=O)c1ccccc1[N+](=O)[O-] | lasR | reporter gene, agonist | Escherichia coli JLD271 lasI-lacZ reporter |  | EC50 | 37.6 nM |
| NC[C@@H](NC[C@@H]1CCCN1C[C@@H](CO)NC[C@@H](NCCC1CC2CCC1C2)c1ccccc1)c1ccccc1 (stereo partly drawn) | Klebsiella pneumoniae | bacterial growth |  | 16 µM, fold shift of IC50, together with: amikacin | potentiation of amikacin | 2.7 fold |
| CC(=O)Oc1c(Br)cc(Br)cc1CNC(=O)c1ccccc1[N+](=O)[O-] | lasR | reporter gene, agonist | Escherichia coli JLD271 lasI-lacZ reporter |  | EC50 | 20.5 nM |
| CC1(Cc2ccccc2)COc2cc(C(=O)Nc3ccccc3I)ccc21 (racemic) | CNR2 |  | CHO cell membranes |  | EC50 | > 10000 nM |
| C=CC(=O)Nc1cc(-n2c(=O)ccc3cnc4ccc(-c5cn[nH]c5)cc4c32)ccc1C | U2932 | cell growth |  | 72 h | GI50 | 1200 nM |
| O=C(Oc1c(Br)cc(Br)cc1CNC(=O)c1ccccc1[N+](=O)[O-])c1ccccc1 | lasR | reporter gene, agonist | Escherichia coli JLD271 lasI-lacZ reporter |  | EC50 | 1.16 nM |
| [11CH3]Nc1ccc(C(=O)C2CCN(C3Cc4ccccc4CC3O)CC2)cc1 (single isomer, unassigned) |  |  | Sprague-Dawley rat, cerebellum | 30 min | uptake | 0.157 %ID/g |
| COc1ccccc1C(=O)Oc1c(Br)cc(Br)cc1CNC(=O)c1ccccc1[N+](=O)[O-] | lasR | reporter gene, agonist | Escherichia coli JLD271 lasI-lacZ reporter |  | EC50 | 1.1 nM |
| COc1ccc(CN[C@@H]2CO[C@H](C(c3ccccc3)c3ccccc3)C[C@H]2O)cc1 | D(3) dopamine receptor (DRD3, Homo sapiens, UniProt P35462) | radioligand binding |  | 10 µM, together with: [3H]N-methylspiperone | inhibition | 15.3% |
| CCCCCCCC(=O)Oc1c(Br)cc(Br)cc1CNC(=O)c1ccccc1[N+](=O)[O-] | lasR | reporter gene, agonist | Escherichia coli JLD271 lasI-lacZ reporter |  | EC50 | 12.2 nM |
| COCOc1ccc(C(=O)OC2=C[C@@H](C(=O)OC)[C@]3(C)CC[C@H]4C(=O)O[C@H](c5ccoc5)C[C@]4(C)[C@H]3C2=O)cc1F | Mu-type opioid receptor, with beta-arrestin-2 (OPRM1, Homo sapiens, UniProt P35372) | β-arrestin recruitment, agonist |  |  | EC50 | 1300 ± 80 nM |
| O=C(N[C@@H]1CC[C@@]2(O)[C@H]3Cc4ccc(O)c5c4[C@@]2(CCN3CC2CC2)[C@H]1O5)c1ccnc(Br)c1 | Oprm1 | agonist | CHO cell membranes |  | EC50 | 0.42 ± 0.05 nM |
| NCCNCCSc1ccccc1 |  |  | n-octanol/phosphate buffer | 10 µg/mL, pH 7.4 | partition coefficient | 0.23 ± 0.04 |
| CCn1nc(C)cc1C(=O)Nc1nc2cc(C(N)=O)cc(OC)c2n1C/C=C/Cn1c(NC(=O)c2cc(C)nn2CC)nc2cc(C(N)=O)cc(OCCOCCNC(=O)CCCCN=[N+]=[N-])c21 | Stimulator of interferon genes protein (Sting1, Mus musculus, UniProt Q3TBT3) | IFN-β secretion, agonist, ELISA | mouse BMDCs | carrier-free cysteine-blocked click | EC50 | 52 ± 11 nM |

Excerpt of the above:
| Structure (SMILES) | target or system | test | system | conditions | quantity | value |
| --- | --- | --- | --- | --- | --- | --- |
| CCn1nc(C)cc1C(=O)Nc1nc2cc(C(N)=O)cc(OC)c2n1C/C=C/Cn1c(NC(=O)c2cc(C)nn2CC)nc2cc(C(N)=O)cc(OCCOCCNC(=O)CCCCN=[N+]=[N-])c21 | Stimulator of interferon genes protein (Sting1, Mus musculus, UniProt Q3TBT3) | IFN-β secretion, agonist, ELISA | mouse BMDCs | carrier-free cysteine-blocked click | EC50 | 52 ± 11 nM |
| NCCNCCSc1ccccc1 |  |  | n-octanol/phosphate buffer | 10 µg/mL, pH 7.4 | partition coefficient | 0.23 ± 0.04 |
